Assay results from different studies.
Compare with care: the assays were run in different laboratories.
Rhomboid protease AarA: Rhomboid protease AarA (Providencia stuartii, UniProt P46116)
UniProt P46116, sequence (whole entry, looked up): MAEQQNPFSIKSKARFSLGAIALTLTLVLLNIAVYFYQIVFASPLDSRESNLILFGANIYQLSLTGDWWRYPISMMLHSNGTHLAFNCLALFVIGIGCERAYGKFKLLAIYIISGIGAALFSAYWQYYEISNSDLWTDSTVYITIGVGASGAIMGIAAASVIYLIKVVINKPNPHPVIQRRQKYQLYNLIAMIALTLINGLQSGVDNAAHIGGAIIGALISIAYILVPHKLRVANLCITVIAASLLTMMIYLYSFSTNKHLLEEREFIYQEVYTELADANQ
PPARG: Peroxisome proliferator-activated receptor gamma (PPARG, Homo sapiens, UniProt P37231)
UniProt P37231, sequence (whole entry, looked up): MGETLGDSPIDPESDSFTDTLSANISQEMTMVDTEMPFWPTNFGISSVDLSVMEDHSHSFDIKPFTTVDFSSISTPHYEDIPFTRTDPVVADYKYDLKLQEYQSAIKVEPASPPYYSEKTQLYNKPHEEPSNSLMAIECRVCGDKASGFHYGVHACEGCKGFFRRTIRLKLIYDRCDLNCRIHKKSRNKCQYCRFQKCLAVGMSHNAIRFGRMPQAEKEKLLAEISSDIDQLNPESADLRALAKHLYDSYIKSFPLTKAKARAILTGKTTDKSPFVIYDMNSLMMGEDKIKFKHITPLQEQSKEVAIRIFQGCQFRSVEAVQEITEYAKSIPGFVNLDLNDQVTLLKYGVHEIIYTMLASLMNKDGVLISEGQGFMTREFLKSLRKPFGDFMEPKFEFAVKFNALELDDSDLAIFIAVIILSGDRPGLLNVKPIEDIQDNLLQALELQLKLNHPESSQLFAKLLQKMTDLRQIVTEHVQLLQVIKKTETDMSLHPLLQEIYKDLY
UniProt P41143, sequence (whole entry, looked up): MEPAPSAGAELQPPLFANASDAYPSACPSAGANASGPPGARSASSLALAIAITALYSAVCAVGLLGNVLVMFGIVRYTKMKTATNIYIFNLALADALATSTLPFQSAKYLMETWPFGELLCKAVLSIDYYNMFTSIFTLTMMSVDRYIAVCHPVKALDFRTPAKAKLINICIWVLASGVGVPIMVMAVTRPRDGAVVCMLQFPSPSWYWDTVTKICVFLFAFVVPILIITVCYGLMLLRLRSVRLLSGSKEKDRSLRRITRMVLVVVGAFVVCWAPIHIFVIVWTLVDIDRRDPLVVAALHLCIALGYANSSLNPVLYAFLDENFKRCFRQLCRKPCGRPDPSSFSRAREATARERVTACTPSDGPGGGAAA
UniProt Q06418, sequence (whole entry, looked up): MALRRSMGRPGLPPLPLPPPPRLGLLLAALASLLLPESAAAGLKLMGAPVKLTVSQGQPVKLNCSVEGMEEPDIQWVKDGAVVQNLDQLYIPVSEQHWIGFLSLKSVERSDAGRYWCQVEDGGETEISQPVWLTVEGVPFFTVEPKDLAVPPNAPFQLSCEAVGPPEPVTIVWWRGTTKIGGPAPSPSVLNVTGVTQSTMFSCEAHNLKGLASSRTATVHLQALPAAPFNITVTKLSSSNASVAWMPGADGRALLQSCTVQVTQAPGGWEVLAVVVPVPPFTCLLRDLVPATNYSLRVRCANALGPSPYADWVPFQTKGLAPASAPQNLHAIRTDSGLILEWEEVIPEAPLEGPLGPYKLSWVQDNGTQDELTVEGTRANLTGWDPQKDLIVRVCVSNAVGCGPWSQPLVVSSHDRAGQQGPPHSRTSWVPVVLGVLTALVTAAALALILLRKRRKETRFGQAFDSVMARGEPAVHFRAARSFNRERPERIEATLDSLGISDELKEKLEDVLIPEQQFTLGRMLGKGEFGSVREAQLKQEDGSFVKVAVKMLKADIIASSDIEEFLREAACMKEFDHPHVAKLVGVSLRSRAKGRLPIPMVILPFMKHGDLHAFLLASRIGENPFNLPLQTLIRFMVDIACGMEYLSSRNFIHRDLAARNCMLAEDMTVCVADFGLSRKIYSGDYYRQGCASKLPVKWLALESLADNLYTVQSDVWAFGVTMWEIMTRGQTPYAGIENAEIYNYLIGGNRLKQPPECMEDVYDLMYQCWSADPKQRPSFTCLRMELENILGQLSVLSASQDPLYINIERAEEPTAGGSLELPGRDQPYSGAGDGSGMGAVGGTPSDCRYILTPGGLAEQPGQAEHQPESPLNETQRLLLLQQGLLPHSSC
UniProt P31639, sequence (whole entry, looked up): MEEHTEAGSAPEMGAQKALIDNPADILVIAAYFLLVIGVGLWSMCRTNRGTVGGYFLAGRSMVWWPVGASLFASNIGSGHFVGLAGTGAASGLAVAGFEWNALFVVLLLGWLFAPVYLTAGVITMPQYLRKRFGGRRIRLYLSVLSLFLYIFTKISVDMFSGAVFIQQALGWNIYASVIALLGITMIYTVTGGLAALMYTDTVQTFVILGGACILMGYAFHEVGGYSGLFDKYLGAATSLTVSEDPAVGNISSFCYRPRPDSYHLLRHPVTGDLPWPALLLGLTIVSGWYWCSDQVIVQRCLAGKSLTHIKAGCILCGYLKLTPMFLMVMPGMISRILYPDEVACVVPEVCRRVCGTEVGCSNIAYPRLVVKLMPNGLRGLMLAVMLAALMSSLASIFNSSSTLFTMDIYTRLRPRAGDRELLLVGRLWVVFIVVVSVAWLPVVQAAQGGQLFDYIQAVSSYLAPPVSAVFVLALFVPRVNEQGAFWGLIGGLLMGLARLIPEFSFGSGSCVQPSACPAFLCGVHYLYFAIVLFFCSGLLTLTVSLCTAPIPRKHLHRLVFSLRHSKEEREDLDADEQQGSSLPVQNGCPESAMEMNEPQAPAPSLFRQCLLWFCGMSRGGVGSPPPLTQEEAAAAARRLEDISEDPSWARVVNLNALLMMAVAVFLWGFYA
UniProt Q14524, sequence (whole entry, looked up): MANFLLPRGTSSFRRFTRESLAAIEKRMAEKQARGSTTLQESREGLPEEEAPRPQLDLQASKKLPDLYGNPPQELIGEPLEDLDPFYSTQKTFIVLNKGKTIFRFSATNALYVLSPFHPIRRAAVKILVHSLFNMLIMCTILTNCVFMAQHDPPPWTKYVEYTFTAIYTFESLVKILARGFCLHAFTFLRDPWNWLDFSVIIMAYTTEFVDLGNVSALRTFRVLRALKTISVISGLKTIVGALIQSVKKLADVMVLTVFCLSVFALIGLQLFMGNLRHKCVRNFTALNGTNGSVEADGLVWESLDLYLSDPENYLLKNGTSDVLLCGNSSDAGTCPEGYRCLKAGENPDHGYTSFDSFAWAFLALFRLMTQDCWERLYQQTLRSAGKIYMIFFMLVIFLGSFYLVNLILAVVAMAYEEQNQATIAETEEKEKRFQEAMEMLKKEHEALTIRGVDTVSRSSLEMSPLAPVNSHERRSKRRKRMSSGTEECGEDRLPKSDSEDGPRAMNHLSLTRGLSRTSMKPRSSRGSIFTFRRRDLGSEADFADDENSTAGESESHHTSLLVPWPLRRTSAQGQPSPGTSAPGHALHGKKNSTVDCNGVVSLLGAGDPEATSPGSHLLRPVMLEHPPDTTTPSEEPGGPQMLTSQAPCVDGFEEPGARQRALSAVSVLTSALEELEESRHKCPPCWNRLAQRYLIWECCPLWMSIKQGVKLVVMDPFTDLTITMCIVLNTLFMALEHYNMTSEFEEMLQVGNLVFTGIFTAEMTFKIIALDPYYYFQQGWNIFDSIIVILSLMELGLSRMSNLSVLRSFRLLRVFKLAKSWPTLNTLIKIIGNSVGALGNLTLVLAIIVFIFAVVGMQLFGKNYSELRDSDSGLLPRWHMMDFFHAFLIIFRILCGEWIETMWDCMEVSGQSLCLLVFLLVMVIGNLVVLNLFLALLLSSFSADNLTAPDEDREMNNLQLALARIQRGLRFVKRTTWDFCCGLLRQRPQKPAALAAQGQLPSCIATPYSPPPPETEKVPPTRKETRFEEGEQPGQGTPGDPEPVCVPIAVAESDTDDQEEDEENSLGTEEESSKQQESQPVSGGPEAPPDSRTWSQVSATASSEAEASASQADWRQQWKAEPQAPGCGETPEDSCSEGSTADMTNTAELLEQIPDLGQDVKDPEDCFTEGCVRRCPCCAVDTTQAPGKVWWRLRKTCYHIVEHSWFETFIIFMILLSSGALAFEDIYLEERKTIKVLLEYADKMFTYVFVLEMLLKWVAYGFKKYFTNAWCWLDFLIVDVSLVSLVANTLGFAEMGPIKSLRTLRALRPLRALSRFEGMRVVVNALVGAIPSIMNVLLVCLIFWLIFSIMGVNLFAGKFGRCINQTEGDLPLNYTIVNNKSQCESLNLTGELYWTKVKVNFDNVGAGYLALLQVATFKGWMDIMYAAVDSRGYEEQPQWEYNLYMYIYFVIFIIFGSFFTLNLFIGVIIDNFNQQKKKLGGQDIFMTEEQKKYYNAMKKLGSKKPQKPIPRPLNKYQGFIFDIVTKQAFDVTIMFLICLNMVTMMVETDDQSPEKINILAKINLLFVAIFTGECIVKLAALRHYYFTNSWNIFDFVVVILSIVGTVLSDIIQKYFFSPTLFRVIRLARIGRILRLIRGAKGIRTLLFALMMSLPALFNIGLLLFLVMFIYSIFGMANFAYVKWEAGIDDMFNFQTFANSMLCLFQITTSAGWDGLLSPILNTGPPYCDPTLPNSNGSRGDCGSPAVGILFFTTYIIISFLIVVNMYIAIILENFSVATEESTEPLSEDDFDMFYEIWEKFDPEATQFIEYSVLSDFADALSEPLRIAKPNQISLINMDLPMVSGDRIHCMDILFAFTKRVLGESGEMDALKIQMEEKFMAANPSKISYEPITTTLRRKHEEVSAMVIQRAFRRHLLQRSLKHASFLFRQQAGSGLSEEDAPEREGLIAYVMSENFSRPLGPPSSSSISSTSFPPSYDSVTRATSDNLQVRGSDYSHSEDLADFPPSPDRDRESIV

Compound	target	assay	system	conditions	IC50 [µM]
O=C1CC(c2ccccc2)N1S(=O)(=O)c1ccccc1 (stereo not drawn)	Rhomboid protease AarA	enzyme activity, inhibitor, fluorescence			104
COC1C(c2ccc(Cl)c(Cc3ccc(OC4CCOC4)cc3)c2)OC(CO)C(O)C1O (stereo not drawn)	SLC5A2 (Homo sapiens, UniProt P31639)	transporter uptake, inhibitor, radiometric			> 0.1
Cc1c(Cc2cccc(OC(C)(C)C(=O)O)c2)c2ccc(C(=O)NCc3ccc(C(C)(C)C)cc3)cc2n1CC1CCC1	PPARG	ligand displacement, TR-FRET			0.0301
CCCCN(CCc1ccccc1)CCc1cccc(O)c1	OPRD1 (Homo sapiens, UniProt P41143)	β-arrestin recruitment, antagonist			> 20
CC(C)Oc1ccccc1NC(=O)C(C(F)(F)F)C(F)(F)F	Rhomboid protease AarA	enzyme activity, inhibitor, fluorescence			2.3
Cc1c(Cc2ccc(OC(C)C(=O)O)cc2)c2ccc(C(=O)N[C@@H](C)c3cccc(C(C)C)c3)cc2n1C (stereo partly drawn)	PPARG	ligand displacement, TR-FRET			0.054
Cc1cccc(NC(=O)C(C(F)(F)F)C(F)(F)F)c1	Rhomboid protease AarA	enzyme activity, inhibitor, fluorescence			18.3
Cc1nn(-c2cccc(N)c2)c(=O)c2cnc(Nc3ccc(N4CCNCC4)cc3)nc12	TYRO3 (Homo sapiens, UniProt Q06418)	enzyme activity, inhibitor			2.07
Cc1c(Cc2cccc(OC(C)C(=O)O)c2Cl)c2ccc(C(=O)NC(C)c3ccc(C(C)(C)C)cc3)cc2n1C (stereo not drawn)	PPARG	ligand displacement, TR-FRET			0.015
CCC1(CC)CC(=O)N(C2CCOc3ccc(C(=O)NC4CC(C)(C)Oc5ccccc54)cc32)C(=N)N1 (stereo not drawn)	SCN5A (Homo sapiens, UniProt Q14524)	ion current, inhibitor, patch clamp	HEK293	pH 7.3	4.6
Cc1c(Cc2cccc(OC(C)C(=O)O)c2)c2ccc(C(=O)N[C@@H](C)c3cccc(C(F)(F)F)c3)cc2n1C (stereo partly drawn)	Peroxisome proliferator-activated receptor gamma, ligand-binding domain (PPARG, Homo sapiens, UniProt P37231)	reporter gene, luciferase reporter	HEK293T, Gal4-PPARγ LBD		1.94
CC(C)(C)OC(=O)COc1ccccc1NC(=O)C(C(F)(F)F)C(F)(F)F	Rhomboid protease AarA	enzyme activity, inhibitor, fluorescence			2.8

Some of these lines once more:
Compound	target	assay	system	conditions	IC50 [µM]
O=C1CC(c2ccccc2)N1S(=O)(=O)c1ccccc1 (stereo not drawn)	Rhomboid protease AarA	enzyme activity, inhibitor, fluorescence			104
